Experimental data collected from several papers.
Compare with care: the assays were run in different laboratories. ± gives the spread as reported.
GABA-A receptor; alpha-1/beta-2/gamma-2: GABA-A receptor; alpha-1/beta-2/gamma-2 (Homo sapiens, UniProt P14867+P18507+P47870)
HTR2A: 5-hydroxytryptamine receptor 2A (HTR2A, Homo sapiens, UniProt P28223)

| SMILES | target | assay | system | conditions | EC50 |
| --- | --- | --- | --- | --- | --- |
| CCCCCc1cc(O)c(C/C=C(\C)CCC=C(C)C)c(O)c1C(=O)O | GABA-A receptor; alpha-1/beta-2/gamma-2 | potentiation of GABA-evoked current, positive allosteric modulator, two-electrode voltage clamp | Xenopus oocytes | together with: GABA 15 µM | 813 nM |
| CC[C@H](C)[C@H](NC(=O)[C@H](Cc1ccccc1)NC(=O)[C@H](CCC(=O)O)NC(=O)[C@H](CCCCN)NC(=O)[C@H](C)NC(=O)[C@H](C)NC(=O)[C@H](CCC(N)=O)NC(=O)CNC(=O)[C@H](CCC(=O)O)NC(=O)[C@H](CC(C)C)NC(=O)[C@H](Cc1ccc(O)cc1)NC(=O)[C@H](CO)NC(=O)[C@H](CO)NC(=O)[C@@H](NC(=O)[C@H](CC(=O)O)NC(=O)[C@H](CO)NC(=O)[C@@H](NC(=O)[C@H](Cc1ccccc1)NC(=O)[C@@H](NC(=O)CNC(=O)[C@H](CCC(=O)O)NC(=O)[C@H](C)NC(=O)N(N)Cc1c[nH]cn1)[C@@H](C)O)[C@@H](C)O)C(C)C)C(=O)N[C@@H](C)C(=O)N[C@@H](Cc1c[nH]c2ccccc12)C(=O)N[C@@H](CC(C)C)C(=O)N[C@H](C(=O)N[C@@H](CCCNC(=N)N)C(=O)NCC(=O)N[C@@H](CCCNC(=N)N)C(=O)NCC(=O)O)C(C)C | Glucagon-like peptide 1 receptor (GLP1R, Homo sapiens, UniProt P43220) | reporter gene, agonist, luciferase | – | – | 0.3 to 0.7 nM |
| CNCCc1c[nH]c2ccc(OC)cc12 | 5-hydroxytryptamine receptor 1A (HTR1A, Homo sapiens, UniProt P08908) | calcium signal, agonist | – | – | 220 nM |
| CC[C@H](C)[C@H](NC(=O)[C@H](Cc1c[nH]cn1)NC(=O)[C@@H](NC(=O)[C@H](CCC(N)=O)NC(=O)[C@H](CCCNC(=N)N)NC(=O)[C@@H](NC(=O)[C@@H](N)CCC(=O)O)[C@@H](C)CC)[C@@H](C)O)C(=O)N[C@@H](Cc1ccccc1)C(=O)N[C@@H](Cc1ccccc1)C(=O)N[C@@H](Cc1ccccc1)C(=O)N[C@@H](CC(N)=O)C(=O)N[C@@H](CC(C)C)C(=O)N[C@@H](Cc1ccccc1)C(=O)N[C@@H](CCCCN)C(=O)N[C@@H](CCCNC(=N)N)C(=O)N[C@@H](CCCNC(=N)N)C(=O)O | histidine kinase ComD (Streptococcus pneumoniae serotype 4, UniProt A0A0H2US84) | reporter gene, agonist | Streptococcus pneumoniae, TIGR4 comX::lacZ | 30 min, pH 7.3, 37 °C | > 10000 nM |
| CC[C@H](C)[C@@H]1NC(=O)[C@H](CCCNC(=N)N)NC(=O)[C@H](CC(=O)O)NC(=O)[C@H](CC(C)C)NC(=O)[C@H](CCCCN)NC(=O)[C@H](CC(C)C)NC(=O)CNC(=O)[C@H](Cc2ccccc2)NC(=O)[C@@H](NC(=O)CNC(=O)[C@H](CCCCN)NC(=O)[C@H](CO)NC(=O)[C@H](CC(C)C)NC(=O)CNC(=O)[C@H](CCCCN)NC(=O)[C@H](CCCCN)NC(=O)[C@H](CC(N)=O)NC(=O)[C@H](C)NC(=O)CNC(=O)[C@H](CCCCN)NC(=O)[C@H](Cc2ccc(O)cc2)NC(=O)[C@H](CCCCN)NC(=O)[C@H](CCCNC(=N)N)NC(=O)[C@H](C)NC(=O)[C@H](CC(N)=O)NC(=O)[C@@H]2CCCN2C(=O)[C@H](Cc2c[nH]cn2)NC(=O)[C@H](CCC(=O)O)NC(=O)[C@H](CCC(N)=O)NC(=O)CNC(=O)[C@@H]2CCCN2)CSSC[C@@H](C(=O)O)NC(=O)CNC(=O)[C@H](CC(C)C)NC(=O)CNC(=O)[C@H](CO)NC(=O)[C@H](CCSC)NC(=O)[C@H](CO)NC(=O)CNC1=O | NPR-B | urine cGMP/creatinine, sigmoid Emax model on Cmax | human | first 6 months | 4.79 ng/mL |
| CCCN(C/C=C/I)C1CCc2ccc(O)cc2C1 (stereo not shown) | Alpha-2C adrenergic receptor (ADRA2C, Homo sapiens, UniProt P18825) | G protein activation, agonist, BRET, item: Gαi1 | HEK293T, transfected | Emax below 50% | 11 ± 4 nM |
| CC[C@H](C)[C@H](NC(=O)[C@H](Cc1ccccc1)NC(=O)[C@H](CC(=O)O)NC(=O)[C@H](CC(C)C)NC(=O)[C@@H](NC(=O)[C@@H](NC(=O)[C@H](CCCNC(=N)N)NC(=O)[C@H](CO)NC(=O)[C@@H](NC(=O)[C@H](CCCNC(=N)N)NC(=O)[C@H](CCSC)NC(=O)[C@@H](N)CCC(=O)O)[C@@H](C)CC)[C@@H](C)CC)[C@@H](C)CC)C(=O)N[C@@H](CC(C)C)C(=O)N[C@@H](CC(C)C)C(=O)N[C@@H](CCCNC(=N)N)C(=O)O | histidine kinase ComD (Streptococcus pneumoniae serotype 2, UniProt A0A0H2ZM50) | – | Streptococcus pneumoniae | – | > 1000 nM |
| CC(C)c1ccc2c(c1)c(SC(C)(C)C)c(CC(C)(C)C(=O)O)n2Cc1ccc(Cl)cc1 | Microtubule-associated protein tau, monomeric (MAPT, Homo sapiens, UniProt P10636) | intramolecular FRET | HEK293, GFP-tau-RFP biosensor | – | 2120 nM |
| O=C1Nc2cc(Cl)c(Cl)cc2N2CCNCC12 (stereo not shown) | 5-hydroxytryptamine receptor 2C (HTR2C, Homo sapiens, UniProt P28335) | calcium signal, agonist | – | – | 1.5 nM |
| CCCN(CCC)CCc1c[nH]c2ccccc12 | HTR2A | β-arrestin recruitment, agonist | – | – | 1690 nM |
| CC[C@H](C)[C@H](NC(=O)[C@H](Cc1ccccc1)NC(=O)[C@H](CC(=O)O)NC(=O)[C@H](CCCNC(=N)N)NC(=O)[C@@H](NC(=O)[C@@H](NC(=O)[C@H](CCCNC(=N)N)NC(=O)[C@H](CO)NC(=O)[C@@H](NC(=O)[C@H](CCCNC(=N)N)NC(=O)[C@H](CCSC)NC(=O)[C@@H](N)CCC(=O)O)[C@@H](C)CC)[C@@H](C)CC)[C@@H](C)CC)C(=O)N[C@@H](Cc1ccccc1)C(=O)N[C@@H](CC(C)C)C(=O)N[C@@H](CCCNC(=N)N)C(=O)O | histidine kinase ComD (Streptococcus pneumoniae serotype 2, UniProt A0A0H2ZM50) | – | Streptococcus pneumoniae | – | > 1000 nM |
| Cc1ncsc1-c1ccc([C@H](C)NC(=O)[C@@H]2C[C@@H](O)CN2C(=O)[C@@H](NC(=O)CNC(=O)c2ccc(F)c(-c3ccc(N4C[C@@H](C)N(C)[C@@H](C)C4)c(NC(=O)c4c[nH]c(=O)cc4C(F)(F)F)c3)c2)C(C)(C)C)cc1 | WDR5/DCAF1 (Homo sapiens, UniProt P61964+Q9Y4B6) | HiBiT-WDR5 degradation, degrader | MV4-11 expressing exogenous HiBiT-WDR5 | 24 h | 3.8 ± 1 nM |
| C=C1C(=O)N[C@@H](C)C(=O)N(C)[C@@H](C)C(=O)N[C@@H]([C@H](OC(=O)[C@@H](NC(=O)CC)[C@H](O)C(C)C)C(C)C)C(=O)N(C)[C@@H]([C@@H](C)OC)C(=O)O[C@H](C(C)C)[C@H](NC(C)=O)C(=O)O[C@H](Cc2ccccc2)C(=O)N1C | Gnaq, with Gβ1γ2 (Mus musculus, UniProt P21279, Q209L) | Gβ1γ2–Gαq association, split-luciferase complementation | HEK293 | 18 h, constitutively active Gαq Q209L | 9 nM |
| C[C@@]1(O)CC[C@@]2(C)[C@@H](CC[C@@H]3[C@@H]2CC[C@]2(C)[C@@H](c4cc(CO)on4)CC[C@@H]32)C1 | GABA-A receptor; alpha-1/beta-2/gamma-2 | GABA current potentiation, positive modulator, two-electrode voltage clamp | Xenopus laevis oocytes | 30 s preincubation, together with: GABA EC10 | 1330 ± 250 nM |
| CC(=O)Nc1ccc(Nc2nc(-c3ccc(Cl)c(Cl)c3)cs2)cc1 | Sterol carrier protein 2 (Homo sapiens, UniProt P22307) | NBDS displacement, fluorescent probe displacement | – | 50% of maximum displacement, together with: NBDS 500 nM | 2200 ± 200 nM |
| [Cl-].[Cl-].[Zn+2] | Glutamate receptor ionotropic, kainate 3 (Rattus norvegicus, UniProt P42264) | ion current, positive modulator, whole-cell patch clamp | HEK293 cells | biphasic dose-response curve, together with: glutamate 10 mM | ~20000 nM |
| CC(C)N(CCc1c[nH]c2ccccc12)C(C)C | HTR2A | calcium signal, agonist | – | – | 33.5 nM |
| CC[C@H](C)[C@H](N)CN(C(=O)[C@@H]1C[C@H]1c1ccccn1)c1ccc(-c2ccccc2)cc1 (relative stereo) | G protein-coupled receptor 88 (Homo sapiens, UniProt Q9GZN0) | cAMP, agonist, TR-FRET | – | – | 2760 nM |
| CC[C@H](C)[C@H](NC(=O)[C@H](Cc1ccccc1)NC(=O)[C@H](CC(=O)O)NC(=O)[C@H](CC(C)C)NC(=O)[C@@H](NC(=O)[C@H](Cc1ccccc1)NC(=O)[C@H](CCCNC(=N)N)NC(=O)[C@H](CO)NC(=O)[C@@H](NC(=O)[C@H](CCCNC(=N)N)NC(=O)[C@H](CCSC)NC(=O)[C@@H](N)CCC(=O)O)[C@@H](C)CC)[C@@H](C)CC)C(=O)N[C@@H](Cc1ccccc1)C(=O)N[C@@H](CC(C)C)C(=O)N[C@@H](CCCNC(=N)N)C(=O)O | histidine kinase ComD (Streptococcus pneumoniae serotype 2, UniProt A0A0H2ZM50) | – | Streptococcus pneumoniae | – | > 1000 nM |
| CC(C)NCCc1c[nH]c2ccccc12 | HTR2A | calcium signal, agonist | – | – | 116 nM |
| CC(C)Oc1ccccc1-n1c(CN2CCN(C(=O)COc3ccc(Cl)cc3)CC2)nc2ccccc2c1=O | Slc7a11 (Rattus norvegicus, UniProt A0A8I6AB70) | cystine uptake, inhibitor | rat primary microglia | 15 min, together with: LPS, [14C]-cystine | 4780 ± 1740 nM |
| CC[C@H](C)[C@H](NC(=O)[C@H](Cc1ccccc1)NC(=O)[C@H](CC(=O)O)NC(=O)[C@H](CC(C)C)NC(=O)[C@@H](NC(=O)[C@@H](NC(=O)[C@H](CCCNC(=N)N)NC(=O)[C@H](CO)NC(=O)[C@@H](NC(=O)[C@H](CCCNC(=N)N)NC(=O)[C@H](CCSC)NC(=O)[C@@H](N)CCC(=O)O)[C@@H](C)CC)[C@@H](C)CC)[C@@H](C)CC)C(=O)N[C@@H](Cc1ccccc1)C(=O)N[C@@H](CCC(N)=O)C(=O)N[C@@H](CCCNC(=N)N)C(=O)O | histidine kinase ComD (Streptococcus pneumoniae serotype 2, UniProt A0A0H2ZM50) | – | Streptococcus pneumoniae | – | > 1000 nM |
| CC(C)CC(=O)N[C@H]1CCOC1=O | HTH-type quorum-sensing regulator RhlR (rhlR, Pseudomonas aeruginosa, UniProt P54292) | reporter gene, agonist | Escherichia coli reporter strain | – | 1000 nM |
| CCCN(CCC)CCc1c[nH]c2ccc(OC)cc12 | HTR2A | β-arrestin recruitment, agonist | – | – | 993 nM |
| CC[C@H](C)[C@H](NC(=O)[C@H](Cc1ccccc1)NC(=O)[C@H](Cc1c[nH]cn1)NC(=O)[C@@H](NC(=O)[C@H](CC(C)C)NC(=O)[C@H](CCCNC(=N)N)NC(=O)[C@@H](NC(=O)[C@@H](N)CCC(=O)O)[C@@H](C)CC)[C@@H](C)O)C(=O)N[C@@H](Cc1ccccc1)C(=O)N[C@@H](Cc1ccccc1)C(=O)N[C@@H](CC(N)=O)C(=O)N[C@@H](CC(C)C)C(=O)N[C@@H](Cc1ccccc1)C(=O)N[C@@H](CCCCN)C(=O)N[C@@H](CCCNC(=N)N)C(=O)N[C@@H](CCCNC(=N)N)C(=O)O | histidine kinase ComD (Streptococcus pneumoniae serotype 4, UniProt A0A0H2US84) | reporter gene, agonist | Streptococcus pneumoniae, TIGR4 comX::lacZ | 30 min, pH 7.3, 37 °C | > 10000 nM |

Some of these lines once more:
| SMILES | target | assay | system | conditions | EC50 |
| --- | --- | --- | --- | --- | --- |
| CCCN(CCC)CCc1c[nH]c2ccc(OC)cc12 | HTR2A | β-arrestin recruitment, agonist | – | – | 993 nM |
| O=C1Nc2cc(Cl)c(Cl)cc2N2CCNCC12 (stereo not shown) | 5-hydroxytryptamine receptor 2C (HTR2C, Homo sapiens, UniProt P28335) | calcium signal, agonist | – | – | 1.5 nM |
| CC[C@H](C)[C@H](NC(=O)[C@H](Cc1ccccc1)NC(=O)[C@H](CCC(=O)O)NC(=O)[C@H](CCCCN)NC(=O)[C@H](C)NC(=O)[C@H](C)NC(=O)[C@H](CCC(N)=O)NC(=O)CNC(=O)[C@H](CCC(=O)O)NC(=O)[C@H](CC(C)C)NC(=O)[C@H](Cc1ccc(O)cc1)NC(=O)[C@H](CO)NC(=O)[C@H](CO)NC(=O)[C@@H](NC(=O)[C@H](CC(=O)O)NC(=O)[C@H](CO)NC(=O)[C@@H](NC(=O)[C@H](Cc1ccccc1)NC(=O)[C@@H](NC(=O)CNC(=O)[C@H](CCC(=O)O)NC(=O)[C@H](C)NC(=O)N(N)Cc1c[nH]cn1)[C@@H](C)O)[C@@H](C)O)C(C)C)C(=O)N[C@@H](C)C(=O)N[C@@H](Cc1c[nH]c2ccccc12)C(=O)N[C@@H](CC(C)C)C(=O)N[C@H](C(=O)N[C@@H](CCCNC(=N)N)C(=O)NCC(=O)N[C@@H](CCCNC(=N)N)C(=O)NCC(=O)O)C(C)C | Glucagon-like peptide 1 receptor (GLP1R, Homo sapiens, UniProt P43220) | reporter gene, agonist, luciferase | – | – | 0.3 to 0.7 nM |
| CC[C@H](C)[C@H](N)CN(C(=O)[C@@H]1C[C@H]1c1ccccn1)c1ccc(-c2ccccc2)cc1 (relative stereo) | G protein-coupled receptor 88 (Homo sapiens, UniProt Q9GZN0) | cAMP, agonist, TR-FRET | – | – | 2760 nM |
